Assay results collected from several papers.
Parts stem from different laboratories: compare values within a part only. Substitutions count along the parent as printed.

Series 1 — target: CCNB1, cyclin fold, Cln2 fusion (human); technique: yeast growth competition, sequencing; sample: yeast; setting: weak parent motif; reference: not given; reading: higher = stronger binding
Starting sequence: PPP1R3F docking peptide (human); VAPRRVLFADEAL
Change | normalised enrichment score
E11A | 0.346
R5K | 0.397
F8A | -0.055
P3A | -0.0267
V1A | 0.623
L13A | -0.0773

Series 2 — technique: aptamer microarray, sandwich; molecule type: DNA with 2'F-ANA; sample: in vitro; concentration: 200 nM; added: Cy3 exosite-II aptamer, 400 nM; reading: higher = stronger binding; sequence: GGTTGGTGTGGTTGG
Target: Prothrombin, mature alpha-thrombin (F2, Homo sapiens, UniProt P00734)
Setting: whole 15-mer aptamer, many near background
Modification | mean fluorescence intensity
2'F-ANA at 1 3 4 5 7 8 9 10 11 12 | 53.8 a.u.
2'F-ANA at 1 2 6 11 13 15 | 108 a.u.
2'F-ANA at 1 3 5 6 7 11 12 15 | 98.9 a.u.
2'F-ANA at 3 5 7 10 11 15 | 58.1 a.u.
2'F-ANA at 2 3 5 6 8 9 10 11 14 | 51.4 a.u.
2'F-ANA at 1 4 6 7 9 10 11 12 13 15 | 51.5 a.u.
2'F-ANA at 1 3 5 6 9 10 | 45.6 a.u.
2'F-ANA at 1 3 5 6 9 13 14 15 | 44.2 a.u.
2'F-ANA at 2 3 6 7 8 12 13 14 15 | 419 a.u.
2'F-ANA at 1 4 7 9 13 | 76.9 a.u.
2'F-ANA at 1 2 3 4 5 6 8 10 14 15 | 291 a.u.
2'F-ANA at 3 11 13 14 | 648 a.u.
2'F-ANA at 1 5 7 11 12 15 | 80.9 a.u.
2'F-ANA at 1 4 5 10 11 12 15 | 49.9 a.u.
2'F-ANA at 3 6 7 10 13 14 15 | 389 a.u.
2'F-ANA at 2 3 4 7 9 11 12 15 | 638 a.u.
2'F-ANA at 1 3 6 7 8 11 12 13 | 458 a.u.
2'F-ANA at 2 3 4 6 14 15 | 270 a.u.
2'F-ANA at 2 3 4 6 10 13 15 | 178 a.u.
2'F-ANA at 1 6 7 9 10 | 53.2 a.u.
2'F-ANA at 2 3 5 7 8 10 11 15 | 56.8 a.u.

Series 3 — technique: RNA Bind-n-Seq; molecule type: RNA; sample: in vitro; concentration: not given; reference: input RNA pool; reading: higher = stronger binding
Target: RING finger protein unkempt homolog, zinc fingers 1-6, GST-SBP tag (UNK, Homo sapiens, UniProt Q9C0B0, residues 30-357)
UniProt Q9C0B0, sequence (30-357, looked up): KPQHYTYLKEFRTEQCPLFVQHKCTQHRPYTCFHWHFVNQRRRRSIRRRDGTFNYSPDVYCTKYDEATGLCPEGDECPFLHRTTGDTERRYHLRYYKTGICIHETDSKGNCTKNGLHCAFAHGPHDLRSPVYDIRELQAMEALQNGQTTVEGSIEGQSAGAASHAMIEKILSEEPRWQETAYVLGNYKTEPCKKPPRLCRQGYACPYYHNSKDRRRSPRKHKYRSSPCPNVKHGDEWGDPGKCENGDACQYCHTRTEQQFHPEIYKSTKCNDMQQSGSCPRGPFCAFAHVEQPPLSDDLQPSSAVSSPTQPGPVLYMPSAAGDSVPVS
Setting: RNA with constant flanks, human and mouse sites, ends assumed
All sequences stand within: GGGAGUUCUACAGUCCGACGAUC … CAACAGAGGAUUGAGCAUCA
Sequence | bound/input enrichment
GCUAAGCAGAGGAUCCAGGAAAGAAUUGCCAGAGAAGGAAUAAAAAAUAAGAUUUUAUAUGAAAGCACCCACCUUGAUCCUGAAAGAAAAAUGAAGACCAACAACAGCAGCUAAGCAACU | 0.467 ratio
CCCUUUGGGAUUGUGAAAGCUUCGUGGCUACCAAAGUUUACACAAGCUGGUGCCCAGAAAAUGAAGAGACUGCCAACCCCUUCUAUGAUGAAUGAUUAUUAUGCAGCAUCUCCAAGAAUA | 0.0757 ratio
CAGAAACUGGAAGAGAUGGUUACCCGUUUAGAUCAAGAAGUAGCCGAGGUUGAUAAAAACAUAGAACUUUUGAAAAAGAAGGAUGAAGAACUCAGUUCUGCUCUGGAAAAAAUGGAAAAU | 0.926 ratio
GAUAAUGACAAAGAAGAUGGCUGCUUCUAUUUCAGGGAUAAAGUAAUUCCUAAUAAAGUGGGGACAUAUUGUAUCCAGUUUGGUUUUAUGAUGGAUAAAACAAAUAUUCUCAACAGUGAA | 0.201 ratio
CUGUGAGCGUCUACAGACAGCUCACCAUUUUUGUCCUGUAUCUGUAAACACUUUUUGUUCUUAGUCUUUUUCUUGUAAAAUUGAUGUUCUUUAAAAUCGUUAAUGUAUAACAGGGCUUAU | 11.2 ratio
UUAGAUUUCAUUGGUAAUAAUGAGUCCCCACGUAAGAAGUUUCCCCCGAUGACAUCUUACCACAGGAUGCUGUUACACAGAGUGGCUGCCUACUUUGGAUUAGACCACAAUGUUGAUCAG | 0.192 ratio
UGGAAACACUGGAGGUGUUGUUGGGGCCAUAGUACAAUCUCAUUUUCUAUUAAAAAUACAUGGCUAUGUAAAUAGGGCAUUUACAAUUUCUUAAAAGUCUUAUUUGCACCUUGUUUGGUU | 0.491 ratio
UUUUCUGAAUAAAAUAGUUGUUUCUAAUUAAAAAGUAGCCAAGCUAAGAUGCCUGGCUGGGCUUCUGAGGAAUUAAUACACUCGUGUGUGUGUGUGUGUGUGUGUGUGUGUGUGUGUGUG | 12.8 ratio

Series 4 — technique: DHFR PCA, deep sequencing; sample: yeast; added: (+)-ABA 2500 µM; reference: wild-type fitted maximum; reading: higher = stronger binding
Target: ABI1, truncated, D143A, DHFR fusion (Arabidopsis thaliana)
Setting: methotrexate growth selection, single substitutions
Starting sequence: PYL1, truncated, DHFR fusion (Arabidopsis thaliana); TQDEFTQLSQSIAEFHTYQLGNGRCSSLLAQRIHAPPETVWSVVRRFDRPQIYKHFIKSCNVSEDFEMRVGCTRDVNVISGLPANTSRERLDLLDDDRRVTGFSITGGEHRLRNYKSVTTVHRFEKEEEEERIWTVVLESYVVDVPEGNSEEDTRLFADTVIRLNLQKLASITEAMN; partner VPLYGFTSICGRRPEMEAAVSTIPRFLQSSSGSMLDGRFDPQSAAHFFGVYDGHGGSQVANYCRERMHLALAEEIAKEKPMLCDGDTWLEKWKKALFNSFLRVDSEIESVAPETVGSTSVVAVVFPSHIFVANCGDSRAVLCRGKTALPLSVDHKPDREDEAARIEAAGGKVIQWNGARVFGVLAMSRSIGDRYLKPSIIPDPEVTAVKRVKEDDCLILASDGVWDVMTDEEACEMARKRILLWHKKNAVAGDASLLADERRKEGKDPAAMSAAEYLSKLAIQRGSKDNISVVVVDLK
Change | relative binding score [%]
D3F | 93.9
S11I | 87.6
P50A | 72.3
E131K | 105
P36I | 90.2
E129I | 107
E38R | 91.9
G23A | 93.4
T1N | 98.5
Q2T | 95.1
E152F | 92.6
R132A | 105
E151W | 93.8
Q7P | 90.3
E4S | 92.8
E125N | 107
L166N | 66.6

Repeated from above (series 2):
Modification | mean fluorescence intensity
2'F-ANA at 1 4 5 10 11 12 15 | 49.9 a.u.
2'F-ANA at 3 6 7 10 13 14 15 | 389 a.u.
2'F-ANA at 2 3 4 7 9 11 12 15 | 638 a.u.
2'F-ANA at 1 3 6 7 8 11 12 13 | 458 a.u.
2'F-ANA at 2 3 4 6 14 15 | 270 a.u.
